Results from different studies.
Lines come from different studies, so protocols differ. ± gives the spread as reported.

`COc1ccc(-c2c(-c3ccc(C#N)c(F)c3)nc(N3CCC(N)CC3)n(C)c2=O)cc1F` — result for “any-grade TRAE incidence”: 68% (measured: ≥1 event; human patients; oral, dose not given, dose escalation).
`Cc1ccc2cc(N3CCC4(O)C(=O)c5cc(C)c(C)cc5N=C34)ccc2n1` (stereo not shown): “motor learning and memory” “no effect” (rotarod; mice; 10 mg/kg).
For `C[C@H]1C[C@@H](N2C(=N)N[C@](C)(c3cccc(NC(=O)c4cccc(C#N)c4)c3Cl)CC2=O)CCO1`, the glucose change was 55% (rat; 500 mg/kg, every other day).
`CN1CCN(S(=O)(=O)c2cc([N+](=O)[O-])ccc2N(CCOS(C)(=O)=O)CCOS(C)(=O)=O)CC1` gave an AUMC(0-inf) of 0.85 µM·h² (naive female NSG mice, plasma; intraperitoneal, 10 mg/kg).
Under “patients with grade ≥3 TEAE”, `O=C1Nc2cc3[nH]nc(-c4ccncc4)c3cc2CN1Cc1ccccc1` is recorded as 9% (measured: increased AST; patients with advanced solid tumours; intravenous, dose not given, schedules 1 and 2).
For `CCc1ccc(CC/C=C/c2ccc3c(c2)C(=O)CC3)cc1`, the Mononuclear percentage was 2.43% (Sprague-Dawley rat, male; oral, 30 mg/kg/day, 14 days).
For `COc1ccnc(C(=O)N[C@H]2COC(=O)[C@H](Cc3ccccc3)[C@@H](OC(=O)C(C)C)[C@H](C)OC2=O)c1OCOC(=O)C(C)C`, the KFoc was 5780 mL/g (soil adsorption; tested soils; geometric mean).
The Headache incidence of `CCN1[C@@H](C(=O)NC23CCC(C(=O)O)(CC2)CC3)[C@H](c2cccc(Cl)c2F)[C@]2(C(=O)Nc3cc(Cl)ccc32)C12CCCCC2` is reported as 9.1% (patients with advanced solid tumours; oral, 100 mg).
For `CC(C)(c1ccccc1)c1cc(-n2nc3ccccc3n2)c(O)c(C(C)(C)c2ccccc2)c1`, “daily dermal exposure dose” read 53.9 ng/kg/day (human aged 11-16 years; concentration not given, spray sunscreen, 95th percentile).
For `C[C@@H]1OC(=O)NN=C1c1ccc(-c2ccc(F)cc2)c(C(F)(F)F)c1`, “patients with adverse event” read 50% (phase I trial, measured: Pneumonitis all grades; human patients; 20 mg loading then 1 mg daily).
`CC(C)C[C@H](NC(=O)[C@H](CCCCN)NC(=O)OCC1c2ccccc2-c2ccccc21)C(=O)N[C@H](C(=O)N[C@@H](Cc1ccccc1)C(=O)N[C@@H](Cc1ccccc1)C(=O)N[C@@H](CCCCN)C(=O)NCC(=O)N[C@@H](Cc1ccccc1)C(=O)N[C@@H](C)C(=O)N[C@@H](Cc1c[nH]c2ccccc12)C(=O)N[C@@H](CC(N)=O)C(=O)N[C@H](C(=O)N[C@H]1CSSC[C@@H](C(=O)N[C@@H](Cc2c[nH]cn2)C(=O)N[C@@H](CCCNC(=N)N)C(=O)N[C@@H](CCCNC(=N)N)C(=O)N[C@@H](C)C(=O)N[C@@H](CC(N)=O)C(N)=O)NC(=O)[C@H](C(C)C)NC(=O)[C@H](CCCNC(=N)N)NC(=O)[C@H](C(C)C)NC(=O)CNC(=O)[C@H](CC(N)=O)NC(=O)[C@H](CCCNC(=N)N)NC(=O)[C@H](Cc2ccc(O)cc2)NC(=O)[C@H](C(C)C)NC1=O)C(C)C)C(C)C` — result for “secondary structure content”: 44.5% (circular dichroism, measured: antiparallel β-sheet; PBS; 80 µM, pH 7.4, added: LPS 1 µM).
The headache incidence of `CO[C@H]1C[C@@H]2CC[C@@H](C)[C@@](O)(O2)C(=O)C(=O)N2CCCC[C@H]2C(=O)O[C@H]([C@H](C)C[C@@H]2CC[C@@H](OC(=O)NCCOCCOCCOCCOCCOCCOCCOCCOCCC(=O)N3CCc4cc(Cn5nc(-c6ccc7oc(N)nc7c6)c6c(N)ncnc65)ccc4C3)[C@H](OC)C2)C[C@@H](O)[C@H](C)/C=C(\C)[C@@H](O)[C@@H](OC)C(=O)[C@H](C)C[C@H](C)/C=C/C=C/C=C/1C` is reported as 41.7% (patients with advanced solid tumours; intravenous, 12 mg weekly, any grade).
For `O.O.O.O.O.O.[Cl-].[Cl-].[Co+2]`, the reticulocytes was 19.7% (Crl:CD(SD) rat female, blood; oral, 2.48 mg Co/kg/day, 90 days; reference: red blood cells).
For `C=CC(=O)Nc1cc(Nc2nccc(Nc3cc(Cl)c(F)cc3C(C)(C)O)n2)c(OC)cc1N1CC[C@@H](N(C)C)C1`, “patients with rash” read 70% (human patients; oral, 400 mg, treatment-emergent adverse events).
The tmax of `COc1ccc(F)cc1C(=O)NCc1ccc(-c2nn([C@@H](C)C(F)(F)F)c(N)c2C(N)=O)cc1` is reported as 3 h (human, plasma; oral, 200 mg once daily, added: intravenous midazolam).
For `Clc1cc(Cl)c(-c2c(Cl)c(Cl)cc(Cl)c2Cl)cc1Cl`, the log K(PDMS-water) was 6.65 ± 0.07 (fresh water; 20 °C, SSP sampler, 100 µm).
`CN1CCN(c2ccc(Nc3nccc(-c4ccc(F)cc4)n3)cc2C(F)(F)F)CC1` gave a toxicity of 0% (zebrafish embryos; 50 µM, 5 d).
`CN[C@H]1CC[C@@H](c2ccc(Cl)c(Cl)c2)c2ccccc21` — result for “elimination rate constant”: 8.63e-05 s⁻¹ (CD-1 mouse, male, lung; intraperitoneal, 0.3 mg/kg).
For `CCN1CCN(Cc2ccc(Nc3ncc(F)c(-c4cc(F)c5nc6n(c5c4)[C@H](C)CCC6)n3)nc2)CC1`, “Nausea incidence, grade ≥3” read 0% (advanced solid tumour patients; dose not given, Phase Ia monotherapy).
Under “incidence of atrial fibrillation”, `Cc1cc(C)c(CNC(=O)c2cc(Cl)c3c(c2C)O[C@@](C)([C@H]2CC[C@H](N(C)C)CC2)O3)c(=O)[nH]1` is recorded as 0% (relapsed/refractory NHL patients; dose not given, trial, safety set, treatment-related TEAE grade 5).
Under “platelet count decreased”, `CC(=O)c1c(C)c2cnc(Nc3ccc(C4CCN(CCS(C)(=O)=O)CC4)cn3)nc2n(C2CCCC2)c1=O` is recorded as 27.2% (HR+/HER2- advanced breast cancer patients; oral, dose not given, all grades).
For `N=C(N)NCCC[C@@H](NC(=O)[C@@H](N)Cc1ccccc1)C(=O)N[C@@H](Cc1ccccc1)C(=O)N[C@@H](CCCCN)C(N)=O`, “median amount excreted in urine” read 91600 ng (LC-MS; human; 5 mg, 23.83 h).
Under “literature range factor”, `Clc1ccc(-c2cc(Cl)c(Cl)c(Cl)c2Cl)cc1Cl` is recorded as 9 (polyethylene-water partitioning; PCB compilation; reference: maximum over minimum K).
Under “QTcI change from baseline”, `NCCCC[C@@H]1NC(=O)[C@@H](Cc2c[nH]c3ccccc23)NC(=O)[C@H](c2ccccc2)NC(=O)[C@@H]2C[C@@H](OC(=O)NCCN)CN2C(=O)[C@H](Cc2ccccc2)NC(=O)[C@H](Cc2ccc(OCc3ccccc3)cc2)NC1=O` is recorded as 2.2 ms (healthy volunteers; subcutaneous, 1950 µg twice daily, day 5, 0.00 h).
`O=C(Nc1ccccc1)C1CCN(C(=O)Oc2cccnc2)CC1`: “change in Anxious score” -0.3 (psychotropic effects VAS; healthy women; 20 mg; reference: pre-dose baseline, direction not given).
`O=C(O)CCCOc1ccc(F)cc1-c1cc(-c2ccccc2C(F)(F)F)n(-c2ccccc2)n1` — result for “relative organ weight”: 0.22 ± 0.03 g% (female Crl:CD(SD) rats, spleen; intravenous, 25 µg/kg, 1 d).
`CC(C)C[C@@H]1NC(=O)CNC(=O)[C@H](CC(N)=O)NC(=O)[C@H](CCCNC(=N)N)NC(=O)[C@H]([C@@H](C)O)NC(=O)[C@@H]2CSSC[C@@H]3NC(=O)[C@H]([C@@H](C)O)NC(=O)CNC(=O)CNC(=O)[C@H](C(C)C)NC(=O)[C@@H]4CSSC[C@H](NC(=O)[C@H]([C@@H](C)O)NC(=O)[C@H](CSSC[C@H](NC(=O)[C@H](C(C)C)NC(=O)[C@H](CCCCN)NC1=O)C(=O)NCC(=O)N[C@@H](CCC(=O)O)C(=O)N[C@@H]([C@@H](C)O)C(=O)N4)NC(=O)CNC(=O)[C@@H]1CCCN1C(=O)[C@H]([C@@H](C)O)NC(=O)[C@H](CC(N)=O)NC3=O)C(=O)N[C@@H](CO)C(=O)N[C@@H](Cc1c[nH]c3ccccc13)C(=O)N1CCC[C@H]1C(=O)N[C@@H](C(C)C)C(=O)N2` has a remaining peptide of 0% (HPLC; ammonium bicarbonate 0.1 M; 180 µM, 7 days, pH 9.0, 37 °C, deamidation stability).
`COc1cc(C2C3=C(COC3=O)N(CCO)c3cc4c(cc32)CCC4)cc(OC)c1OC` (stereo not shown) gave a body weight of 215 g (female Sprague-Dawley rats; intraperitoneal, 200 mg/kg, 72 h, single dose, mean).
`CC[C@H](C)[C@@H]1NC(=O)[C@@H]2CSSC[C@H](NC(=O)[C@H](CCCNC(=N)N)NC(=O)[C@@H]3CSSC[C@H](NC1=O)C(=O)N[C@@H]([C@@H](C)O)C(=O)N[C@@H](CCCNC(=N)N)C(=O)NCC(=O)N[C@@H](Cc1ccccc1)C(=O)N3)C(=O)N[C@@H](CC(C)C)C(=O)N[C@H]1CSSC[C@H](NC(=O)[C@H](C(C)C)NC(=O)CNC(=O)[C@H](CCCNC(=N)N)NC(=O)[C@H](CCCNC(=N)N)NC1=O)C(=O)N[C@@H](CCCNC(=N)N)C(=O)N2`: “lung eosinophilic infiltration score” 1 to 3 (Sprague-Dawley rat, female, lung; 5 mg/kg, perivascular, peribronchiolar; direction not given).
`C[C@]1(O)C[C@@](N)(c2ccc(-c3nc4n(c3-c3ccccc3)COc3ccncc3-4)cc2)C1` — result for “patients with Nausea TEAE”: 14.3% (human, advanced or metastatic solid tumours; intermittent, dose escalation total, any grade).
For `CN1CC[C@@H](c2c(O)cc(O)c3c(=O)cc(-c4ccc(C(F)(F)F)cc4Cl)oc23)[C@@H]1CO`, “patients with adverse event” read 0% (measured: Hypoalbuminemia; relapsed AML; oral, 150 mg, grade 3-4, intermittent dosing).

Some of these lines once more:
The headache incidence of `CO[C@H]1C[C@@H]2CC[C@@H](C)[C@@](O)(O2)C(=O)C(=O)N2CCCC[C@H]2C(=O)O[C@H]([C@H](C)C[C@@H]2CC[C@@H](OC(=O)NCCOCCOCCOCCOCCOCCOCCOCCOCCC(=O)N3CCc4cc(Cn5nc(-c6ccc7oc(N)nc7c6)c6c(N)ncnc65)ccc4C3)[C@H](OC)C2)C[C@@H](O)[C@H](C)/C=C(\C)[C@@H](O)[C@@H](OC)C(=O)[C@H](C)C[C@H](C)/C=C/C=C/C=C/1C` is reported as 41.7% (patients with advanced solid tumours; intravenous, 12 mg weekly, any grade).
For `C[C@@H]1OC(=O)NN=C1c1ccc(-c2ccc(F)cc2)c(C(F)(F)F)c1`, “patients with adverse event” read 50% (phase I trial, measured: Pneumonitis all grades; human patients; 20 mg loading then 1 mg daily).
